# Results gathered from unrelated publications.
# Every numbered part comes from another study and shows a few of its results, in no order. Positions count from the first letter of the parent shown.

# Study 1
# Target: ABI1, truncated, D143A, DHFR fusion (Arabidopsis thaliana)
# Technique: DHFR PCA, deep sequencing
# Medium: yeast
# Setting: methotrexate growth selection, single substitutions
# Together with: (+)-ABA 0.11 µM
# Baseline: wild-type fitted maximum
# Reading: higher = stronger binding
# Starting sequence: PYL1, truncated, DHFR fusion (Arabidopsis thaliana); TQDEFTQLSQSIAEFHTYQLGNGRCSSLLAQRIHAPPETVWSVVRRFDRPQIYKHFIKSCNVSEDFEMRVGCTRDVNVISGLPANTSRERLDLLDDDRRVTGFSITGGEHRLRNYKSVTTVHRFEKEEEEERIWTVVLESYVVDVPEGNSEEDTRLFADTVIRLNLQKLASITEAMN; partner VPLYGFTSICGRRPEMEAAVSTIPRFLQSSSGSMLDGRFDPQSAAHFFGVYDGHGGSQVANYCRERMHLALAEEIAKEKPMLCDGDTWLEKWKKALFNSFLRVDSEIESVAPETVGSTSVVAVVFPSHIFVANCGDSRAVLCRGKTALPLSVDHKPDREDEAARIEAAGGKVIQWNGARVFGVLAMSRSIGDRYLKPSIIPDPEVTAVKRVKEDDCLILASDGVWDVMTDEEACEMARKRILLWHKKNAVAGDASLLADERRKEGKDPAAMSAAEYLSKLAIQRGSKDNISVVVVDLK
Substitution,relative binding score [%]
L28F,2.83
V161I,75.7
L94H,9.39
R111M,18.7
D97F,2.73
E64S,34.8
V100N,-10
T6N,36.3
V43S,-1.86
D92C,7.54
L112Q,-1.77
E89S,1.47
F66R,0.47
V145A,2.12
H34F,24.2
H34E,40.3

# Study 2
# Target: CCND1, cyclin fold, Cln2 fusion (human)
# Technique: yeast growth competition, sequencing
# Medium: yeast
# Setting: weak parent motif
# Baseline: not given
# Reading: higher = stronger binding
# Starting sequence: CDC25A docking peptide (human); PPHRRRLLFACSP
Substitution,normalised enrichment score
PPHRRRLLVACSP [F9V],-0.021
PGHRRRLLFACSP [P2G],0.497
PPHRRRLLFACFP [S12F],0.311
PPHRRRLLFACMP [S12M],0.338
PPHRRPLLFACSP [R6P],0.961
PPHRRRLLKACSP [F9K],0.232
PPHRRRLLPACSP [F9P],-0.402
PPHRRRLLFAISP [C11I],0.558
PPHRRRLLFACSF [P13F],0.233
PPHRVRLLFACSP [R5V],0.578
PYHRRRLLFACSP [P2Y],0.215
PPHSRRLLFACSP [R4S],-0.369
PPHRRRLLFAMSP [C11M],0.0776
PPHRRRLLFACSY [P13Y],0.517
PPHRMRLLFACSP [R5M],0.767
PPHRRRLLYACSP [F9Y],-0.106
PPPRRRLLFACSP [H3P],-0.242
PPHCRRLLFACSP [R4C],0.401
KPHRRRLLFACSP [P1K],0.763
PPHRRILLFACSP [R6I],-0.0961
PPHRRRLLFICSP [A10I],-0.297
FPHRRRLLFACSP [P1F],-0.236
PPHRRCLLFACSP [R6C],-0.161
PPHRRRLLLACSP [F9L],0.045

# Study 3
# Target: Prothrombin, mature alpha-thrombin (F2, Homo sapiens, UniProt P00734)
# Technique: aptamer microarray, sandwich
# Form: DNA with 2'F-ANA
# Medium: in vitro
# Concentration: 200 nM
# Setting: whole 15-mer aptamer, many near background
# Together with: Cy3 exosite-II aptamer, 400 nM
# Reading: higher = stronger binding
# Oligonucleotide: GGTTGGTGTGGTTGG
Modification,mean fluorescence intensity
2'F-ANA at 2 3 10 11 13,368 a.u.
2'F-ANA at 1 2 4 6 7 9 11 12 14,51.7 a.u.
2'F-ANA at 1 5 8 12 13 15,86 a.u.
2'F-ANA at 1 2 3 6 8 11 12 15,345 a.u.
2'F-ANA at 3 5 9 11,107 a.u.
2'F-ANA at 5 9 10 11 12 13 14,45.7 a.u.
2'F-ANA at 1 2 4 5 7 8 10 12 14 15,50 a.u.
2'F-ANA at 2 5 9 12 15,140 a.u.
2'F-ANA at 1 5 6 8 9 11 12 13,78.6 a.u.
2'F-ANA at 1 2 5 6 7 11 12 14 15,118 a.u.
2'F-ANA at 2 3 5 6 8 10 14,55.9 a.u.
2'F-ANA at 2 3 5 6 7 9 10 11 12 14 15,75.9 a.u.
2'F-ANA at 1 3 5 6 7 9 12 14 15,54.1 a.u.
2'F-ANA at 1 2 3 5 6 7 8 9 10 12 13 14 15,52.3 a.u.
2'F-ANA at 1 3 4 6 7 8 9 13 14,81.8 a.u.
2'F-ANA at 2 3 4 5 9 11 12 15,139 a.u.
2'F-ANA at 1 2 4 7 9 10 11 12 13 14 15,79.7 a.u.
2'F-ANA at 1 3 4 8 10 12 14,85 a.u.
2'F-ANA at 1 4 6 8 12,367 a.u.
2'F-ANA at 2 4 5 7 9 11 12 15,96.6 a.u.
2'F-ANA at 4 6 9 11 12 14 15,79 a.u.
2'F-ANA at 2 3 10 12 15,486 a.u.
2'F-ANA at 1 2 3 9 10 11 13,61.3 a.u.

# Study 4
# Target: RNA binding protein fox-1 homolog 2, RRM domain, GST-SBP tag (RBFOX2, Homo sapiens, UniProt O43251-10, residues 100-194)
# Technique: RNA Bind-n-Seq
# Form: RNA
# Medium: in vitro
# Concentration: 365 nM
# Setting: natural RNA segment, single round, ends assumed
# Baseline: no-protein control
# Reading: higher = stronger binding
# Constant ends, left off below: GGGAGUUCUACAGUCCGACGAUC … UGGAAUUCUCGGGUGCCAA
# Residues (chain): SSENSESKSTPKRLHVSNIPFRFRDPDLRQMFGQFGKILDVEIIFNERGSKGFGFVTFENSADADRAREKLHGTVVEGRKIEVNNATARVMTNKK
Oligonucleotide,RBNS enrichment (R)
CUAUGCCUAGGCAAACUACUAACAUGCAUUGUGAGAAUGCCGUGUAUACCUCACGUACUGUGUACUUUGUACAUAUAUUUUACCUUUUAUACCUAUGUUCGAUUUUGUUU,1.17
CCGAAUCAGAAUCCCAUCUCACCAGGGCGAAAUUUUAAUUUAAAAACUUAAAAAGAGACUUUUCUAACUUCCCUGGUUUGCGGUGCUUUUAUUUCCGUUGGUGGGAAAAG,0.485
UCUAUGGUGGAUGUUUAUGCUACGGUCCGCCAAUAGAAAAUGGAUUCUAUUAUGACAUGUACCUCGAAGAAGGGGGUGUGUCUAGCAAUGAUUUCUCUUCUCUGGAGGCU,0.486
ACAUUAAUAUUAUUAAUAUAAUAAUGGUGAUGGUGAUGAUGAAAACUGAGGACUUUAAAAGAGAUUUUCCCUUCCCAAACGUGUCUGGACAGUACCUGAUUGUAUUUUUU,0.334
UUCUGCGUUGGCUGGGGCAGAGCUCAGCACCCUCAGCCCUGCGGCCGUUCAUCUUGUGUGUUUGUGACUUACUUUUGUAGCCUGUCAUCUUCUGGGCCCAGAGUCAGGGU,0.521
AAAUAAAAGCCCAGGUCUGAGAUGUUCACACAAGCAAUUUCUCUGCACUGCUGUGUGGGCCGUGCAUGAUGUUUCCCCAUCAUUUCUUAAGACUGUUUUCCUGUGUAAGU,0.794
UGUGUGAACCCCACUCCUAUCCUUUGGCCUUAGUUUUCCCAUCUGUAAAACUCAGAAACGCAGUUGGAAAGUCCUUAUUCAUUUAGUAAGCGAAUAUAUUAUAAUAUGUA,0.499
AGGGGAGGCCUGACAGAGCCCAAGAAUGAGGACACCCUCGGCACGGGAACCCAUUCACUUAGCGUUUGCUCCAGUAGCUUUCCCUCUGCUACCAAUGCAGAUAAACGCGG,0.646
